Measurements of several laboratories.
Lines come from different studies, so protocols differ. Values joined by “and” are separate records of one study, mostly repeats; a detail may differ. ± gives the spread as reported. Converted amounts (≈) assume the structure as drawn.

Under “log2 fold change”, COC1CN([C@H]2CC[C@H]([C@@]3(C)Oc4c(Cl)cc(C(=O)NCc5c(SC)cc(C)[nH]c5=O)c(C)c4O3)CC2)C1 is recorded as 0.399 (RNA-seq, measured: BAIAP2 mouse homolog; mouse, HT-1376 xenograft, whole blood; dose not given; relative to: vehicle).
For CC(C)=CCC/C(C)=C/CC/C(C)=C/Cc1c(O)cc(CO)c(C=O)c1O, the Vmax was 8.6 nmol/min/mg (Stachybotrys chartarum; 30 min, pH 7.0, 25 °C).
O=C1Nc2ccccc2C1(c1c[nH]c2ccccc12)c1c[nH]c2ccccc12 has an IC50 of over 50000 nM (Clostridioides difficile; microbial growth, absorbance).
The herbicidal inhibition of CC(O)CNCC(C)O.O=C(O)C(Cl)Cl (stereo not shown) is reported as 0% (Xanthium sibiricum; 15 mg/mL, 21 days, pre-emergence, greenhouse).
CC1(C)[C@H](NC(=O)/C(=N\OCC(=O)N2CCC(C(=O)O)CC2)c2csc(N)n2)C(=O)N1OS(=O)(=O)O has an MIC of 0.125 µg/mL (≈ 0.228 µM) (Providencia rettgeri; agar dilution; ATCC 31052, susceptible).
C=C(NC(=O)c1csc(-c2nc3c(cc2O)-c2nc(cs2)C(=O)NC(C(C)O)C(=O)NC(=C(C)OC)c2nc(cs2)C(=O)NC2c4nc(cs4)C(=O)NC(COC(=O)c4c5c6c(cccc6n4O)COC(=O)C(OC4CC(C)(O)C(N(C)C)C(C)O4)C2OC5)c2nc-3cs2)n1)C(N)=O (stereo not shown) has an MIC50 of 0.0156 µg/mL (≈ 0.0109 µM) (Staphylococcus aureus; broth microdilution; methicillin-resistant isolates).
With CNS(=O)(=O)Nc1nccc(Cc2c(C)c3ccc(Oc4ncccc4F)cc3oc2=O)c1F the IC50 was 657 nM (ZR-75-1; cell viability; 7 days).
O=C(Nc1cccc(CNc2ncccn2)c1)c1cc(-c2ccccc2)n(-c2ccccc2)n1 has an inhibition of under 50% (Dengue virus; viral replication, inhibitor, imaging; Vero, DENV2; 12.5 µM).
Under “percent of control”, C=CC(=O)Nc1cccc(Cn2ncc3cnc(Nc4cnn(CCOC)c4)nc32)c1 is recorded as 97% (TNNI3K human; binding, KINOMEscan; 100 nM; lower = stronger binding).
The proliferation of Cc1cc(C(=O)Nc2nc3cccc(C)c3n2[C@H]2CCCCN(C(=O)/C=C/CN(C)C)C2)ccn1 is reported as 3.71% and 4.9% and 1.71% and 4.36% and 2.8% and 2.96% (Trypanosoma brucei brucei; Lister 427; 16.67 µM, 24 h, kill kinetics).
CN(Cc1ccc(C2(C(F)(F)F)CCC2)cc1)Cc1cccc2ccccc12 has an inhibition zone of 39.5 mm (Trichophyton mentagrophytes; microbial growth, disc diffusion; ATCC18748; 0.256 µg/mL, 72 h).
CCCCCCCCCC(=O)N[C@@H](Cc1c[nH]c2ccccc12)C(=O)N[C@H](CC(N)=O)C(=O)N[C@@H](CC(=O)O)C(=O)N[C@@H]1C(=O)NCC(=O)N[C@@H](CCCNC(=O)OC2/C=C/CCCCC2)C(=O)N[C@@H](CC(=O)O)C(=O)N[C@H](C)C(=O)N[C@@H](CC(=O)O)C(=O)NCC(=O)N[C@H](CO)C(=O)N[C@@H]([C@H](C)CC(=O)O)C(=O)N[C@@H](CC(=O)c2ccccc2N)C(=O)O[C@@H]1C (stereo partly shown): “peak heat flow” 0 µW (Staphylococcus aureus; planktonic bacterial growth, isothermal microcalorimetry; MSSA; 3.0 µg/mL, 24 h, 37 °C).
CN1CCCNC(=O)c2cccc(c2)C(=O)NCCCN(C)CCCNc2cccc3c2C(=O)c2cccc(c2C3=O)NCCC1 — result for “log2 fold change”: -0.823 (SAS; RNA-Seq, measured: ARGLU1 mRNA; 1 µM, 6 h; relative to: untreated cells).
With CN(C(=O)[C@H](Cc1ccccc1)NC(=O)Cc1c[nH]c2ccc(O)cc12)c1ccc(Cl)cc1 the EC50 was 26 ± 5 nM (human immunodeficiency virus 1; viral replication; NL4-3 with subtype B gag/pol).
Cc1ncsc1-c1ccc(C(C)NC(=O)C2CC(O)CN2C(=O)C(NC(=O)CCCCCCCCCCN2CCCC(Nc3ncc(Cl)c(Nc4ccccc4S(=O)(=O)C(C)C)n3)C2)C(C)(C)C)cc1 (stereo not shown) — result for “log2 fold change”: -1.8 (22Rv1; RNA-seq, measured: ZNF555 mRNA; concentration not given; relative to: DMSO).
Under “male worms recovered”, CC(C)(C)NCC(SS(=O)(=O)O)c1ccccc1 (stereo not shown) is recorded as 11 worms per mouse and 16 worms per mouse and 28 worms per mouse and 19 worms per mouse (Schistosoma mansoni; mice; 600 mg/kg single dose, dosed day 7, perfused 52).
For N=C(N)NCCC[C@@H]1NC(=O)[C@H](CCCNC(=N)N)NC(=O)[C@@H](C(c2ccccc2)c2ccccc2)NC(=O)[C@H](Cc2c[nH]c3ccccc23)NC(=O)[C@@H](C(c2ccccc2)c2ccccc2)NC(=O)[C@@H](CCCNC(=N)N)NC(=O)[C@@H](CCCNC(=N)N)NC1=O, “reduction of viable cells” read over 65% (Candida albicans; ATCC 60193; MIC, 12 h).
COC1C=COC2(C)Oc3c(C)c(O)c4c(c3C2=O)C2=NC3(CCN(CC(C)C)CC3)NC2=C(NC(=O)C(C)=CC=CC(C)C(O)C(C)C(O)C(C)C(OC(=O)Nc2cnccn2)C1C)C4=O (stereo not shown) gave an IC50 of 19 nM (Mycobacteroides abscessus; bacterial growth; subsp. abscessus K21 clinical isolate).
For Nc1ncc(-c2cc(-c3cnn(CC(F)(F)F)c3)ncc2F)nc1C(=O)NC1CNCC(F)C1 (stereo not shown), the remaining binding was 80% (VPS34; KINOMEscan; 1 µM; relative to: DMSO control).

For quick reference, copied from above:
With CN(C(=O)[C@H](Cc1ccccc1)NC(=O)Cc1c[nH]c2ccc(O)cc12)c1ccc(Cl)cc1 the EC50 was 26 ± 5 nM (human immunodeficiency virus 1; viral replication; NL4-3 with subtype B gag/pol).
Cc1ncsc1-c1ccc(C(C)NC(=O)C2CC(O)CN2C(=O)C(NC(=O)CCCCCCCCCCN2CCCC(Nc3ncc(Cl)c(Nc4ccccc4S(=O)(=O)C(C)C)n3)C2)C(C)(C)C)cc1 (stereo not shown) — result for “log2 fold change”: -1.8 (22Rv1; RNA-seq, measured: ZNF555 mRNA; concentration not given; relative to: DMSO).
